Experimental data from different studies.
Protocols differ between the studies behind these lines. ± gives the spread as reported.

| Structure (SMILES) | assay | system | conditions | plasma concentration |
| --- | --- | --- | --- | --- |
| CCOCCOCCOCCCCCNC(=O)NC12CC3CC(CC(C3)C1)C2 |  | ApoE knockout mice, plasma | drinking water, 90 µg/mL, 8 weeks | 0.06 ± 0.04 nM |
| O=C(O)C(F)(F)C(F)(F)C(F)(F)C(F)(F)C(F)(F)C(F)(F)C(F)(F)F | LC-MS | C57BL/6J mouse male, plasma | drinking water, 2 mg/L each PFAS, 12 weeks | 7300 ng/mL |
| Cc1ccc([C@H]2C[C@@H]2COc2cc(NCc3nnc(C)s3)nc(C)n2)nc1 |  | rat (novel object recognition), plasma | oral, 0.16 mg/kg, 1 h | 18 nM |
| CC(C)C[C@H](N)C(=O)N[C@H](C(=O)N[C@@H](CCCCN)C(=O)NCC(=O)N[C@@H](CCCNC(=N)N)C(N)=O)C(C)C |  | lean mouse, plasma | intraperitoneal, 500 µg GLP-1(9-36)amide, 5 min | 80 nM |
| O=S(=O)(O)C(F)(F)C(F)(F)C(F)(F)C(F)(F)C(F)(F)C(F)(F)F | LC-MS | C57BL/6J mouse female, plasma | drinking water, 2 mg/L each PFAS, 12 weeks | 22000 ± 8300 ng/mL |
| Cc1c(P(=S)(c2ccccc2)c2ccccc2)n2ccccc2[n+]1C/C=C/c1ccccc1 |  | mouse, plasma | intraperitoneal, 10 mg/kg, 2 h | 180 ng/mL |
| CC(C)C[C@H](NC(=O)[C@H](CCC(=O)O)NC(=O)[C@H](CCC(=O)O)NC(=O)[C@H](CC(=O)O)NC(=O)[C@H](CCC(=O)O)NC(=O)[C@H](CCC(=O)O)NC(=O)[C@H](CCC(=O)O)NC(=O)[C@@H](N)CC(=O)O)C(=O)O |  | rat, plasma | intranasal, 5.5 mg/kg single dose, 15 min | 162 ng/mL |
| O=C(O)C(F)(OC(F)(F)C(F)(F)C(F)(F)F)C(F)(F)F (stereo not drawn) | LC-MS | C57BL/6J mouse male, plasma | drinking water, 2 mg/L each PFAS, 12 weeks | 100 ng/mL |
| O=C(NCCS)c1cccc(C(=O)NCCS)c1 |  | rat Sprague-Dawley male | intravenous, 1 mg/kg, 0.5 h | 259 ng/mL |
